Experimental data pooled from the literature.
± gives the spread as reported.
Target: Cholinesterase (BCHE, Equus caballus, UniProt P81908)
Chain of UniProt P81908 (whole entry, looked up): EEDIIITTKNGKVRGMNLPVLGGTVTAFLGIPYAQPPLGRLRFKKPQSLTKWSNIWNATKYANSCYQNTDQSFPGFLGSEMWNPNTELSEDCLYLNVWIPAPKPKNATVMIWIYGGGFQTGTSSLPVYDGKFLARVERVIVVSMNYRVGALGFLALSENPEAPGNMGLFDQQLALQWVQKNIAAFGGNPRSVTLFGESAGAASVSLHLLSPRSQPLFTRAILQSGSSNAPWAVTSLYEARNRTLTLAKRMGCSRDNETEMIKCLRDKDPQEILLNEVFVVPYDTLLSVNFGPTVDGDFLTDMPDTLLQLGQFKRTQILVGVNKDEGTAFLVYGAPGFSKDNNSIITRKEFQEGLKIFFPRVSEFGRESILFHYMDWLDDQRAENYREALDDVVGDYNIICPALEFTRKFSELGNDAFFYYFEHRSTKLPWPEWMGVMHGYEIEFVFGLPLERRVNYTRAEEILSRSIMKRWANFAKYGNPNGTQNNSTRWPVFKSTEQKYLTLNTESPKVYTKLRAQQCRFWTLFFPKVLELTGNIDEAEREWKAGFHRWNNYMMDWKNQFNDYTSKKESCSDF

| Structure (SMILES) | test | system | conditions | inhibition [%] |
| --- | --- | --- | --- | --- |
| Clc1ccc(Nc2c3c(nc4ccccc24)CCCC3)cc1 | enzyme activity, inhibitor |  | 50 µM | -34.1 |
| CCCCc1cc(-c2ccccc2)c2cc(/N=N/c3ccc([N+](=O)[O-])cc3)ccc2n1 | enzyme activity, inhibitor |  | 100 µM | 44.5 |
| O=S(=O)(F)CCc1cn(-c2ccc(F)cc2)nn1 | Ellman | horse | 20 µM | 69 |
| COC(=O)C1=CO[C@@H](OC(C)=O)[C@@H]2C(Cn3cc(CN(C)Cc4ccccc4)nn3)=CC[C@H]12 | inhibitor | horse serum BuChE | 10000 µM | 41.96 ± 0.12 |
| COc1ccc(Nc2c3c(nc4ccc(Cl)cc24)CCCC3)nc1 | enzyme activity, inhibitor |  | 100 µM | -47.1 |
| CCCCCCCCOCc1cn(CC2=CC[C@@H]3C(C(=O)OC)=CO[C@@H](OC(C)=O)[C@H]23)nn1 | inhibitor | horse serum BuChE | 10000 µM | 37.4 ± 0.61 |
| c1ccc2c(Nc3c4c(nc5ccccc35)CCCC4)cccc2c1 | enzyme activity, inhibitor |  | 100 µM | 79.8 |
| CCOP(=O)(Cc1ccc(NC(=O)CSc2nc3ccccc3o2)cc1)OCC | inhibitor, Ellman method |  | 10 µM | 14.6 ± 2.4 |
| Cc1ccc(-c2nc3ccc(/N=N/c4ccc(Br)cc4)cc3c(-c3ccccc3)c2I)cc1 | enzyme activity, inhibitor |  | 100 µM | 14.9 |
| COC(=O)C1=CO[C@@H](OC(C)=O)[C@@H]2C(Cn3cc(CCCO)nn3)=CC[C@H]12 | inhibitor | horse serum BuChE | 10000 µM | 27.54 ± 0.2 |
| Cc1ccnc(Nc2c3c(nc4ccc(Cl)cc24)CCCC3)c1 | enzyme activity, inhibitor |  | 100 µM | 97.1 |
| COC(=O)C1=CO[C@@H](OC(C)=O)[C@@H]2C(Cn3cc(C4(O)CCCCC4)nn3)=CC[C@H]12 | inhibitor | horse serum BuChE | 10000 µM | 42.73 ± 0.18 |
| CCCCCn1c(SC(C(=O)NCc2ccccc2)C(=O)NCc2ccccc2)nc2cc(C(=O)Nc3cccc(C(F)(F)F)c3)ccc2c1=O |  |  | 10 µM | 34.3 ± 1.8 |
| O=S(=O)(F)CCc1cn(-c2ccc(Br)cc2)nn1 | Ellman | horse | 20 µM | 82.4 |
| O=C(/C=C/c1ccc(O)cc1)O[C@@H]1[C@@H](O)[C@H](Oc2c(-c3ccc(O)cc3)oc3cc(O)cc(O)c3c2=O)O[C@H](CO)[C@H]1O | enzyme activity, inhibitor, Ellman |  | 100 µg/mL | 6.9 |
| COC(=O)C1=CO[C@@H](O)[C@@H]2C(Cn3cc(-c4ccccc4)nn3)=CC[C@H]12 | inhibitor | horse serum BuChE | 10000 µM | 67.51 ± 0.16 |
| Cc1ccnc(Nc2c3c(nc4cc(C)ccc24)CCCC3)c1 | enzyme activity, inhibitor |  | 50 µM | < -200 |
| CCCCCc1nc2ccc(/N=N/c3ccc(Cl)cc3)cc2c(-c2ccccc2)c1I | enzyme activity, inhibitor |  | 100 µM | 36.3 |
| COC(=O)C1=CO[C@@H](O)[C@@H]2C(Cn3cc(CON4C(=O)c5ccccc5C4=O)nn3)=CC[C@H]12 | inhibitor | horse serum BuChE | 10000 µM | 42.3 ± 0.64 |
| COc1ccc(Nc2c3c(nc4cc(C)ccc24)CCCC3)nc1 | enzyme activity, inhibitor |  | 50 µM | -78.2 |
